Assay results collected from several papers.
Parts stem from different laboratories: compare values within a part only.

Block 1 — method: RNA Bind-n-Seq; molecule type: RNA; sample: in vitro; concentration: 365 nM; baseline: no-protein control; reading: higher = stronger binding
Target: RNA binding protein fox-1 homolog 2, RRM domain, GST-SBP tag (RBFOX2, Homo sapiens, UniProt O43251-10, residues 100-194)
Notes: natural RNA segment, single round, ends assumed
Shared flanks, not repeated: GGGAGUUCUACAGUCCGACGAUC … UGGAAUUCUCGGGUGCCAA
Target sequence (chain): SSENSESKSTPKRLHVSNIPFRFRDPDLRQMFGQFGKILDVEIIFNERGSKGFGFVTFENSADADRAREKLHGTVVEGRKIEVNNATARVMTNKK
| Strand | RBNS enrichment (R) |
| --- | --- |
| UAAUUGUUAAGCCUCUUAUUCUAAAGUCCAUAGCAAUGCUAUGGAAUAUCAAGUAUAAUGAUGUAGUAAAAAGAUUUCUCCAGAAAACACUUUGAGAUACUUAAAGAAAU | 0.314 |
| GAGGUCACCGUGUCCAGUCCUUUGCCUCACCCCCACUGCCCCAGUCUGUAUGCACUGAAAAACGUCGGGUUCUGGGUCUACAAAGCCCCUGCUGCCUGUGUUUGAGGUCU | 0.527 |
| ACCCUUCCGUUGAUUAGCAAUGACUGUGCUUGACCCACCCACCUACCCUACUAAUGAAUUUCUGUAGAGUGGAUGGACGGGUUUGAGGGAAGAAGGGUGGAGGUGGAUUA | 0.38 |
| UUGUUCCGGUUAAUUCCAGAAGACAUUUCAAACAUUUUUCUUACACCAUAUAAUAAAAAUACUUAACUAAAUUGACAGUUAUAAAAAUAAAUCAGUGAAAUGUACCUUAU | 0.566 |
| CCAAUCACAAAAGCGGCGUUGGGUCAGGGCUAGGCUUAGAGGUGAAGCAUCAACAUGGAACCAUCUCAGGAAGCCGCAUCGCCUCUUCCGAGGUCCUCACUUCCAGGAGC | 0.522 |
| UUAGUCUGCUGAGCCAGCUUUACCCAAUGAAGGGCAUAUGUGUUAGAGAGAUUAGCUAAGAGUAGAAAUUCGAGCAUAGAGGCCAGGUGCGGUGGCUCACGCCUGUAAUC | 0.536 |
| GAAGACAAUCUUUCAACAUCCCUACAUUCCUGAUAUGAAGCAGGAAUUUGCACAUGGUGUAGAGAGCUCCCUCUCCUGCCUCUCUGCCCAGCCUUGUUACCUCACUCCUG | 0.948 |
| AUGCUGCCGGCAAGGAGAGUGCAGCAAGAGAGAAAAUCCUCAGGGCUGAACCUGAGAUCUUGGAACUUGAGAGUAAGAGCAAUAAGAUUGUCCAGAGUGUCAUCCAGACA | 0.511 |

Block 2 — method: protein-binding microarray; molecule type: double-stranded DNA, one strand shown; sample: in vitro; concentration: not given; reading: higher = stronger binding
Target: Protein max, full length (MAX, Homo sapiens, UniProt P61244-2, residues 1-151)
Notes: k-mer, scored over probes, only values ≥0.25
| Strand | E-score |
| --- | --- |
| ATGCATGA | 0.326 |
| ACGCGCAA | 0.251 |
| ACACGAGA | 0.348 |
| CGTGCGAA | 0.39 |
| CCACGTCG | 0.284 |
| ACGTGTTA | 0.448 |
| CGTGTAGA | 0.312 |
| GCATGGAC | 0.354 |

Block 3 — method: protein binding microarray; molecule type: double-stranded DNA, one strand shown; sample: in vitro; concentration: not given; baseline: not given; reading: higher = stronger binding
Target: Histone acetyltransferase KAT6A, winged helix 1, GST fusion (KAT6A, Homo sapiens, UniProt Q92794, residues 1-85)
Notes: 8-mer, flanks averaged, mean of 2 arrays, mostly near background
Residues (chain): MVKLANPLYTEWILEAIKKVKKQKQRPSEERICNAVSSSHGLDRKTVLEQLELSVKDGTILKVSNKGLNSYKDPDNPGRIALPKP
| Strand | E-score |
| --- | --- |
| GCCAGTTA | -0.125 |
| GTACAGTA | 0.0369 |
| TGTACCAA | -0.0806 |
| AACAGGCA | -0.0379 |
| AGCAGGCA | -0.0698 |
| GCCCCCCC | -0.0726 |
| AACGTAGG | -0.154 |

Other studies, line by line
| Molecule | target | assay | system | conditions | how to read | measurement | value |
| --- | --- | --- | --- | --- | --- | --- | --- |
| PhoQ, residues 284 288 289 292 302 303 SNGLAW | PhoP, residues 12 14 15 18 19 LHSVQ (Escherichia coli, UniProt P23836) | Sort-seq, measured: YFP reporter | E. coli | PhoQ-PhoP variant library, with: 10 µM Mg2+ | baseline: high Mg2+ state, higher = stronger signaling | fold induction | 7.43 |

Excerpt of the above (block 3):
| Strand | E-score |
| --- | --- |
| AGCAGGCA | -0.0698 |
| GCCCCCCC | -0.0726 |
| AACGTAGG | -0.154 |
